Measurements from different studies.
Protocols differ between the studies behind these lines.

SMILES	system	setting	quantity	result
NCCCC[C@@H]1NC(=O)[C@@H](Cc2c[nH]c3ccccc23)NC(=O)[C@H](c2ccccc2)NC(=O)[C@@H]2C[C@@H](OC(=O)NCCN)CN2C(=O)[C@H](Cc2ccccc2)NC(=O)[C@H](Cc2ccc(OCc3ccccc3)cc2)NC1=O	healthy human volunteers	600 µg twice daily	subjects with adverse event Headache	18%
Cc1ncc2n1-c1ccc(Cl)cc1C(c1ccccc1F)=NC2	human	oral, dose not given	subjects with serious TEAE	0%
CNC(=O)n1ccc2cc(Oc3ccnc(NC(=O)c4ccc(C5CCN(CCO)CC5)cc4)c3)c(OCCOC)cc21	healthy human	oral, 35 mg	subjects with TEAEs	28.6%
Cn1c(-c2ccc(C(N)=O)cc2F)nnc1C(C)(C)Oc1c(F)cc(Cl)cc1F	human	oral, 30 mg, single ascending dose	subjects with drug-related TEAE	16.7%
COc1ccc2c(c1)[C@]13CCCC[C@@H]1[C@H](C2)N(C)CC3	human	oral, dose not given	subjects with terminating TEAE	0%
CC(=O)N(C)[C@H]1CCN(C(=O)c2cnc3c(c2)C[C@](C)(c2ccc(F)cc2)N3)C1	healthy male human	oral, 60 mg once daily, multiple rising dose, added: midazolam	subjects with any AE	62.5%
CC[C@H]1[C@@H](O)[C@@H]2[C@H](CC[C@]3(C)[C@@H]([C@H](C)CCNC(=O)NS(=O)(=O)c4ccc(C(C)(C)C)cc4)CC[C@@H]23)[C@@]2(C)CC[C@@H](O)C[C@@H]12	human	concentration not given, study, added: rifampin	subjects with TEAEs	29.2%
C[C@]1(CO)Cc2ncn(-c3ccc(C#N)c(Cl)c3)c2C(=O)O1	human	5 mg single dose	subjects with any TEAE	28.6%
Cc1ncc2n1-c1ccc(Cl)cc1C(c1ccccc1F)=NC2	healthy humans	oral, dose not given	subjects with ≥1 adverse events	39.1%
C=C(C)[C@@H]1CCC(C)=C[C@H]1c1c(O)cc(CCCCC)cc1O	human	750 mg, trial 17074, added: rifampicin 600 mg	subjects with Headache	13%

For quick reference, copied from above:
SMILES	system	setting	quantity	result
COc1ccc2c(c1)[C@]13CCCC[C@@H]1[C@H](C2)N(C)CC3	human	oral, dose not given	subjects with terminating TEAE	0%
